Experimental data collected from several papers.
Lines come from different studies, so protocols differ. “And” joins repeats or separate records; there may be more than shown. ± gives the spread as reported.

With `COc1cc(-c2nc3ccccc3s2)cc(CN2Cc3cccc(n3)CN(CC(=O)O)Cc3cccc(n3)C2)c1O` the pKa4 was 9.98 (UV-vis spectrophotometric titration, measured: HL/L- equilibrium; MeOH/water with NaCl; 50 µM, room temperature, NaCl 0.1 M, MeOH ≤20% v/v).
`CCCC(CCC)NC(=O)c1ccc(O)c(O)c1` — result for “metabolite peak area”: 0.99% (LC-MS; Sprague-Dawley rats, pooled sexes, plasma; oral, 200 mg/kg of parent drug, 1 h; baseline: total peak area).
`C[C@H](Oc1cc(-c2cnn(C3CCN(CC[18F])CC3)c2)cnc1N)c1c(Cl)ccc(F)c1Cl` gave a tracer uptake of 6.8 ± 0.8 %ID/cc (PET imaging; nude mouse, liver; iv, 5 min post injection).
`CC(C)c1cnc(-c2cc(Cl)ccc2F)cc1Nc1ccncc1C(=O)NC(CO)CO` — result for “treatment-related adverse events”: 9.5% (measured: Vomiting; solid tumour patients; oral, dose not given, phase I monotherapy).
For `O=C(O)C1CN(Cc2ccc(-c3noc(-c4ccc(OCC[18F])c(C(F)(F)F)c4)n3)cc2)C1`, the tracer uptake was 0.223 %ID/g (rat, blood; intravenous, 1 h).
`COc1ccc(/C=C/c2ccc(-c3ccc(C)cn3)nc2)cc1` — result for “radiative decay rate constant”: 0.69 ns⁻¹ (TCSPC; toluene).
`CCOP(=O)(CC(=O)Nc1ccc(S(=O)(=O)N(CC(N)=O)c2ccc(N(CC(N)=O)S(=O)(=O)c3ccc(OC)cc3)c3ccccc23)cc1)OCC` — result for “peak brain concentration”: 347 ± 160 ng/mL (male mouse, Aβ1-42-injected AD model, brain; oral, 40 mg/kg, 30 min).
`O=c1nc(NO)ccn1[C@@H]1O[C@H](CO)[C@@H](O)[C@H]1O` has a protein level of 0.9 fold (Western blot, measured: CYP2C19; rat, arthritis model, liver; oral, 80 mg/kg twice daily, 5 days; baseline: control group).
The half-life of `COc1cccc(Cn2c(OC3CCN(C(=O)C4CC4)CC3)nc3c2c(=O)n(C)c(=O)n3C)c1` is reported as 0.133 h (metabolic stability; rat, liver microsomes).
The heart rate of `CCCC[C@H](NC(=O)[C@H](CC(C)C)N(C)C(=O)CNC(=O)[C@@H](NC(=O)[C@H](Cc1ccccc1)NC(=O)[C@H](CCCCN)NC(=O)[C@@H](N)CC(=O)O)C(C)C)C(N)=O` is reported as 3.15 ± 4.88% (anesthetized Gottingen minipig; subcutaneous, 10 µg/kg; baseline: baseline).
Under “Qy absorption maximum”, `COCCOCCOCCOCCC(=O)NCc1cc(CNC(=O)CCOCCOCCOCCOC)cc(-c2cc3cc4nc(c(-c5ccc(CCC(=O)O)cc5)c5[nH]c(cc6nc(c(OC)c2[nH]3)CC6(C)C)cc5-c2cc(CNC(=O)CCOCCOCCOCCOC)cc(CNC(=O)CCOCCOCCOCCOC)c2)CC4(C)C)c1` is recorded as 726 nm (DMF; room temperature).
The tumour uptake of `CCN(CC)c1ccc2c(-c3ccc(S(=O)(=O)NCCNC(=O)CN4CCN(CC(=O)[O-])CCN(CC(=O)O)CCN(CC(=O)[O-])CC4)cc3S(=O)(=O)[O-])c3ccc(=[N+](CC)CC)cc-3oc2c1.[64Cu+2]` is reported as 6.53 ± 0.48 %ID/g (microPET imaging; athymic nude mice, U-87 MG glioma xenograft; 250 µCi, 1 h post-injection).
For `Cc1ccc(OCC(=O)O)cc1`, the t1/2 was 4.42 h (beagle dog, male, plasma; oral gavage, 30 mg/kg of parent drug).
`O=C(CCCCC[N+]#[C][99Tc-5]([C]#[N+]CCCCCC(=O)N[C@H]1C(O)O[C@H](CO)[C@@H](O)[C@@H]1O)([C]#[N+]CCCCCC(=O)N[C@H]1C(O)O[C@H](CO)[C@@H](O)[C@@H]1O)([C]#[N+]CCCCCC(=O)N[C@H]1C(O)O[C@H](CO)[C@@H](O)[C@@H]1O)([C]#[N+]CCCCCC(=O)N[C@H]1C(O)O[C@H](CO)[C@@H](O)[C@@H]1O)[C]#[N+]CCCCCC(=O)N[C@H]1C(O)O[C@H](CO)[C@@H](O)[C@@H]1O)N[C@H]1C(O)O[C@H](CO)[C@@H](O)[C@@H]1O` (stereo partly drawn) gave a tumour/non-tumour ratio of 4.73 ± 0.15 (SPECT/CT; BALB/c nude mouse HCT-116 xenograft; 2 h; baseline: tumour over non-tumour).
For `CC1=C(/C=C/C(=O)N2CCN(C(N)=O)CC2)C(C)(C)CCC1`, the half-life was 1.12 h (male mouse, plasma; oral, 40 mg/kg, single dose).
`Oc1ccc2nc1CNCCNCCNC2` — result for “sum of log K N-donors”: 22.8 (pH-potentiometric titration; I 0.15 M NaCl, 298 K).
`CCOC(=O)c1[nH]c(C)c(/C=C/C2=[N+]3C(=C(c4cc(OC)cc(OC)c4)c4c(C)c(I)c(/C=C/c5c(C)[nH]c(C(=O)OCC)c5C)n4[B-]3(F)F)C(C)=C2I)c1C` gave a Stokes shift of 750 cm⁻¹ (DMSO).
`O=[11C](N1CCC(CNS(=O)(=O)c2ccc(Cl)cc2)CC1)n1cncn1`: “whole brain uptake” ~0.4 SUV (PET; Sprague-Dawley rat, brain; intravenous, 60 min).
For `NCC(=O)N1CCC[C@H]1C(=O)N1C[C@H](O)C[C@H]1C(=O)O`, the pKa3 was 8.42 (potentiometric titration; water; 25 °C, 0.15 mol/dm3 NaCl).
For `O=C(CCc1ccc(CNC(C(=O)OC2CCCC2)C2CCCCC2)cn1)NO` (stereo not drawn), the AUC(0-t) was 0.186 µg·h/mL (human, plasma; oral, 50 mg single dose, geometric mean).
For `COC(=O)c1ccc(-c2cn(Cc3cc(Cl)ccc3O[11CH3])nn2)cc1`, “distribution volume (VT)” read 0.451 mL/cm³ (PET Logan plot; rhesus monkey, white matter; dose not given, t* 40 min).
`[11CH3]c1ccc2nc(C3CCC3)n(-c3ccc4[nH]ncc4c3)c2n1` gave an absorbed dose of 2.4 µSv/MBq (extrapolated from mouse biodistribution; standard human, testes or uterus).
For `CC(C)(O)c1ncc([S@](N)(=O)=NC(=O)Nc2c3c(cc4c2CCC4)CCC3)s1`, the Tmax was 1 h (healthy human; oral, 10 mg once daily, day 1, capsule formulation, median).
Under “trough plasma concentration”, `CC(=O)N[C@H](CC(=O)O)C(=O)N[C@H](Cc1c[nH]c2ccccc12)C(=O)N[C@H](Cc1ccccc1)C(=O)N[C@H](CCCCN)C(=O)N[C@H](C)C(=O)N[C@H](Cc1ccccc1)C(=O)N[C@H](Cc1ccc(O)cc1)C(=O)N[C@H](CC(=O)O)C(=O)N[C@H](CCCCN)C(=O)N[C@@H](C(=O)N[C@H](C)C(=O)N[C@H](CCC(=O)O)C(=O)N[C@H](CCCCN)C(=O)N[C@H](Cc1ccccc1)C(=O)N[C@H](CCCCN)C(=O)N[C@H](CCC(=O)O)C(=O)N[C@H](C)C(=O)N[C@H](Cc1ccccc1)C(N)=O)C(C)C` is recorded as < 1 ng/mL (human, statin-treated high-risk CHD, plasma; oral, dose not given, day 13, 0 h, daily dosing, predose).
The transformation rate of `COc1c2c(cc3oc(C)cc(=O)c13)O[C@H](C(C)(C)O[C@@H]1O[C@H](CO)[C@@H](O)[C@H](O)[C@H]1O)C2` is reported as 2.13% (simulated gastric fluid with pepsin; 2 h, pH 1.2, 37 °C).
With `O=C([O-])CN1CCN(CC(=O)[O-])CCN(CC(=O)NCC2CCC(C(=O)NC(Cc3ccc4ccccc4c3)C(=O)NCCCCC(NC(=O)NC(CCC(=O)O)C(=O)O)C(=O)O)CC2)CCN(CC(=O)[O-])CC1.[44Sc+3]` (stereo not drawn) the residence time was 0.121 h and 0.215 h and 0.361 h (PET/CT dosimetry, OLINDA/EXM; human, kidneys).
Under “Qy emission FWHM”, `COCCOCCOCCOCCOCCOCCOCCOCCC(=O)NCCCc1cc2cc3nc(cc4[nH]c(cc5nc(c(OC)c1[nH]2)C(=O)C5(C)C)cc4CCc1ccc(C(=O)O)cc1)CC3(C)C` is recorded as 26 nm (DMF; room temperature).
`Cn1c(=O)oc2ccc(-c3ccc(CC(C#N)NC(=O)C4CNCCCO4)c(F)c3)cc21` (stereo not drawn) — result for “urine RBC positive incidence”: 0% (human; oral, 40 mg once daily, TEAE, multiple ascending dose).
Under “treatment-related neutrophil count increase”, `COCC1CN(C2CCN(c3cc(OC)c(Nc4ncc(Br)c(Nc5ccc6c(c5P(C)(C)=O)OCCO6)n4)cc3C)CC2)C1` is recorded as 11.1% (human; oral, 10 to 240 mg once daily, all grades).
`N=C(N)NCCC[C@@H]1NC(=O)[C@H](Cc2c[nH]c3ccccc23)NC(=O)[C@@H](CC2CCCCC2)NC(=O)[C@@H]2CCCN2C(=O)[C@@H](NC(=O)CCc2ccccc2)CCCNC1=O`: “apparent distributional clearance” 2.71 ng/(min·ng/g) (C57BL/6J mice, brain; intraperitoneal, 1 mg/kg, two-compartment model).
For `COc1cc(NC(C)=O)c2c(c1O)-c1c(OC)c(OC)cc3c1C(C2)N(C)CC3` (stereo not drawn), the remaining compound was 108 ± 2.9% (rat heart homogenate; 50 µg/mL, time not given, three freeze-thaw cycles).
Under “muscle activity concentration”, `NC(=O)[C@@H](CCCCNC(=O)CNC(=O)CCC(=O)NCCc1c[nH]cn1)NC(=O)[C@@H](CCC(=O)O)NC(=O)[C@@H](CCCCNC(=O)CNC(=O)CCC(=O)NCCc1c[nH]cn1)NC(=O)[C@@H](Cc1ccc(O)cc1)NC(=O)CN1CCN(CC(=O)O)CCN(CC(=O)O)CCN(CC(=O)O)CC1` [indium-111 labelled] is recorded as 0.068 %ID/kg (SPECT; human CEACAM5 tumour patients; dose not given, 24 h, 100 µg IMP288, added: TF2 75 mg, 5 days interval).
The tissue uptake of `CCCC[C@H](NC(=O)CN1CCC(NC(=O)CN2CCN(CC(=O)O)CCN(CC(=O)O)CCN(CC(=O)O)CC2)CC1)C(=O)N[C@H]1CC(=O)NCCCC[C@@H](C(N)=O)NC(=O)[C@H](Cc2c[nH]c3ccccc23)NC(=O)[C@H](CCCNC(=N)N)NC(=O)[C@@H](Cc2ccccc2)NC(=O)[C@H](Cc2c[nH]cn2)NC1=O` [gallium-68 labelled] is reported as 1.1 ± 0.6 %ID/g (male C57BL/6J mice, B16-F10 tumours, stomach; intravenous, 1 h, blocking study, added: 100 µg non-radioactive Ga-peptide).

Excerpt of the above:
Under “treatment-related neutrophil count increase”, `COCC1CN(C2CCN(c3cc(OC)c(Nc4ncc(Br)c(Nc5ccc6c(c5P(C)(C)=O)OCCO6)n4)cc3C)CC2)C1` is recorded as 11.1% (human; oral, 10 to 240 mg once daily, all grades).
`N=C(N)NCCC[C@@H]1NC(=O)[C@H](Cc2c[nH]c3ccccc23)NC(=O)[C@@H](CC2CCCCC2)NC(=O)[C@@H]2CCCN2C(=O)[C@@H](NC(=O)CCc2ccccc2)CCCNC1=O`: “apparent distributional clearance” 2.71 ng/(min·ng/g) (C57BL/6J mice, brain; intraperitoneal, 1 mg/kg, two-compartment model).
For `COc1cc(NC(C)=O)c2c(c1O)-c1c(OC)c(OC)cc3c1C(C2)N(C)CC3` (stereo not drawn), the remaining compound was 108 ± 2.9% (rat heart homogenate; 50 µg/mL, time not given, three freeze-thaw cycles).
